Assay results pooled from the literature.
Each numbered part is a random draw from the data of one study; scales do not carry over between parts.

Block 1
Target: RNA binding protein fox-1 homolog 2, RRM domain, GST-SBP tag (RBFOX2, Homo sapiens, UniProt O43251-10, residues 100-194)
Technique: RNA Bind-n-Seq
Molecule type: RNA
Medium: in vitro
Concentration: 365 nM
Notes: natural RNA segment, single round, ends assumed
Reference: no-protein control
Direction: higher = stronger binding
Endpoint: RBNS enrichment (R)
Constant ends, left off below: GGGAGUUCUACAGUCCGACGAUC … UGGAAUUCUCGGGUGCCAA
Target sequence (chain): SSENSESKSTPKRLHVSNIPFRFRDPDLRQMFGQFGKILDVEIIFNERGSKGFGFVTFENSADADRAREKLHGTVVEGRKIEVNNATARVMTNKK
UGGCCUCAAUUCCGACCUGAGCCCCGGCCACUUUUAGGCCAUCCUCGGACUUGUCGCCCCUUCCCAGCCCCCUCAGCGUGAUCCUCAGGGUCCUUGGUCUCUUCAGGCCC: 0.377
AUUAUUCCCCCUAUCAUUCCUUUACAGUGCCUAGUGCUACUCAUUAUGUGUUCAUUGAAUUUGACUGACAUAGUUAAAAACUUAAGGUUUAUUUUAGACUUUCAAGGAAA: 0.474
GGGAUGCUGGUGGCUCUUCAGAGGAGCAUCAGCUGUCUGUCAUCUGCUGCGAUCCGGCAGCCUCUCUUCACUGCUACAUGUGCUGGAAGGACAAAUAAAUAAUUGUGGUU: 0.417
UGAAAAUAAAGCAGUCUCGGGCAGAGACGCUGUGUGACAUGUUGGCUGACAAAUUAGUCAUUGCUUAAACACAGUUCAUGCAGAUUAAACACAAAUCAAGUUCCAAAUUU: 0.305
AUGGUAAUUUGAUAUAUGGUAUUUAUAUUGGCAUUUUUCAAUCCAGUGUCAGUAGCUGUCACGCGCAUUUGUGGUGCUUUGAUGUUUGCGAGUCUAACCUCCUCUCAUAA: 0.883
CCGUGACCCCCGGGAUCCCGCCGGUUUUUUCCCCUCCUGGGGGCUCAUGGGGGAGAAUUCCCAGCUCUCCCAACUCUUCCCGCCUCCCACUUUCCCCAGGAACACUCCCG: 0.665
GCUUUUCAUUCUGCACAGUCCCAGGUCCCAGCUCCCCUCUUAUGGUUUCUGUCAUAAUGUGCUUUAUCUGAUUGACUCCAAACAUCCCGAAAUGUCACCUGCAGAUUUCU: 0.372
UUCUGGAAUUGGGGGACCCCCGCCAAAGACUGAGCCCCCUGUCUCCUCCAUCAUUUGGUUUCCUCUUGGCUUUGGGGAUACUUCUAAAUUUUGGGAGCUCCUCCAUCUCC: 0.355
UUAAUUUUAUUUUAUACAAUGUGUAGACAGUUCCCUGUUCUCUGCAUUUAGAAGUAUACACAAUAUAAAUCUGUUAAUUCUGUAAGUAAUUUUUAUAAUUAUGAUGUAAC: 0.627
UUUACCCAGGCCGGGUCAUCUAGCAAGGGAGCUGGUCGUGGAGUGCGGCAGAGACCUCUCCACCCAGAAGCCCUUUCUGUGUCCCCCUCUGCCUCCCUUCUUCCCUCCUC: 0.381
UCUUUGUUAUUUUCAACUGUUCUAUGCUGUGACGAUGAGGAGGAGAUGUCUGUUGGAUUCAUGUCUUUUGCUAUAGUUCAGUAGCUUCUGCUAAAUUUCACUGAUUUUAA: 0.561
CUUAAUUUUCUUAAAACUAUUUUUAAUGAUCCACUAAACAAAGCAGGGGAUCCUGAAGCUGAUAUAAAUAAGUCUAGCUCUAUAAUCCCCAAGUUCUAAAAGUUAUGGUU: 0.397

Block 2
Target: Hepatocyte nuclear factor 3-alpha (Foxa1, Mus musculus, UniProt P35582, residues 1-468, full length assumed)
Technique: EMSA with sequencing
Molecule type: double-stranded DNA, one strand shown
Medium: in vitro
Concentration: 10 and 20 nM
Notes: whole designed probe, mean of two concentrations, ends assumed
Reference: negative control set to 0
Direction: higher = stronger binding
Endpoint: normalised bound fraction
Constant ends, left off below: GTGAGCGGTGCCCATTGATGGGGAAC … TTTCACTGGGATCGTGGGGAC
Target sequence (chain): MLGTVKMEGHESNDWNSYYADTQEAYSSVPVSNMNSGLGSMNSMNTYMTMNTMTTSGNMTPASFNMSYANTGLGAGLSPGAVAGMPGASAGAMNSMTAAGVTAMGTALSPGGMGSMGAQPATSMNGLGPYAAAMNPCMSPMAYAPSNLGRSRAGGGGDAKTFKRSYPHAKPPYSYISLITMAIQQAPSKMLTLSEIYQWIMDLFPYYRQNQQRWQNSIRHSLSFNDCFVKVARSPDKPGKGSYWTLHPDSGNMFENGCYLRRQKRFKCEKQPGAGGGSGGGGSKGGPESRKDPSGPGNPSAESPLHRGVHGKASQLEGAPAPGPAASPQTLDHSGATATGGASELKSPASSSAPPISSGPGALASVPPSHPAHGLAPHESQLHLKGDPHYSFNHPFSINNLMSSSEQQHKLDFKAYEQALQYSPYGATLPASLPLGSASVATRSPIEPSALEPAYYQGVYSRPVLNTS
CGGTGTAGGTTTATTGCCTACATTTATCATTGGAGAAAATGCTAAATTTCAGTTAGAGATTAGTGAAAATGAAATGTAATTTTCTCCTATTTTTGTTTGCCCTTTGGGATCCTGGATGAAGAGCCCTGCATTACACTGGGCACAGTGGCTCATGCCTGCAATCCCAGCTACTAAGGAGGCTGAGGTAGGAGGA: 0.042 ratio
AGAGGTTCTGCCTTATCAGAGTCCCTGACCCACAGTGAGAAATTAATACACATATTTTTGAATAAATTTTGAATAAGTAACTGGGGATTTAAGTAAACAAGAAATTACCCTATAGTGAGAGAAGAGTTTTAACATGTGGTGAGTGGTACAAAGTAGCACACCCAAGGTCGTGGGTTAATGACTTCCTTCCTTG: 0.395 ratio
AACGGGACTCTGGCTGGGCCAGGGCTCCTCGCCCAGGATGCCCGGGGAGAGGCCCCGTGTGAGGGCCTCACTCTGTGGGCTTAGGAATCCCAGAGTAAACAGATCAAGTTACCCGTGTCAGCCGGGCCGTCCACAACAGGCAGCCGCAGCGATTGAAGATGGGAATGTTCTTCTCAGAGATGACTCAGCTACT: 0.289 ratio
ACATAACAATAAGTGGACACTCCATGTAAGTGAAGGCTTAAAAAAATAAATGAAAGGAAGAAAGAATCTCAATACTATTATCAGATAAGAAAAAGTAAACAAGTACATACAAGTACATTTTATAATGATAAGCTATTTAGTATATAGCACAAGTATGTTGAACATGAGTCTTTAAGTACCAAGTTACAAAAAC: 0.399 ratio
ATATCAATTTTAGAACCTAGTAATGAAGGACAATAAAATTATTTTAAAACAAATAACATTTGATGAATACATTAATTAGAAATGCTTCCCCATGTTTACATATAATTGACATACCCAAAAAACAAACAAACAATAACTAACTTATGGTAAGTGACATTTGCTGAAAAGCTGGTTAATGTATCTAAATTCCGAG: 0.535 ratio
ACTACCATAGTTCCTATATACATATATGCCTCTTTCCCAATGCAAGTATGATATACTTTTATTTTGTTATTTGGTTTTCTATCTTTGATTTACAAGATTACACTGACATTTTTTAAGACTCAAATTGCTTAAGGTACAAAAAAATGTATTATTTACTGCAATCTCAACTATTAAAGCTAAAGCATTTCGAAAG: 0.0867 ratio
GCCAGGGCTGGAAGAAGCCAGCTAGAGCCTCACAGTGACTCAGATGCCACACTCCAATTGCACTGTAGTCAGCCCACTTGTGTCATAAAGCCTGTTTACACAAAGCCTAGCATATTAGAAGCAGCTGTGAGTCAGCCTGCTTCAGCTGCTGCTGCTGCCCCAAGAGGCCCATCTCTCCCTGTGATACTTTGGT: 0.314 ratio
ATCTTCCCCCTCTTCCTTGCCCCACCAGCTCACCTACGGGGGTTATTTGCACAAAGGAAAATAAATAAAGCCGGCATTCGTTAACGCAGTTCACGCGCATACTGCTGTTTGCTCTGGATGAATCATGGTCCTTTGGCGACGCCAGGCTCCGGGAGAGCAAAGCACCGTGTCAGGGCCATGATCCGGGGTGGCC: 0.383 ratio

Block 3
Target: Sal-like protein 4, full length isoform A (SALL4, Homo sapiens, UniProt Q9UJQ4, residues 1-1053)
Sequence of UniProt Q9UJQ4 (whole entry, looked up): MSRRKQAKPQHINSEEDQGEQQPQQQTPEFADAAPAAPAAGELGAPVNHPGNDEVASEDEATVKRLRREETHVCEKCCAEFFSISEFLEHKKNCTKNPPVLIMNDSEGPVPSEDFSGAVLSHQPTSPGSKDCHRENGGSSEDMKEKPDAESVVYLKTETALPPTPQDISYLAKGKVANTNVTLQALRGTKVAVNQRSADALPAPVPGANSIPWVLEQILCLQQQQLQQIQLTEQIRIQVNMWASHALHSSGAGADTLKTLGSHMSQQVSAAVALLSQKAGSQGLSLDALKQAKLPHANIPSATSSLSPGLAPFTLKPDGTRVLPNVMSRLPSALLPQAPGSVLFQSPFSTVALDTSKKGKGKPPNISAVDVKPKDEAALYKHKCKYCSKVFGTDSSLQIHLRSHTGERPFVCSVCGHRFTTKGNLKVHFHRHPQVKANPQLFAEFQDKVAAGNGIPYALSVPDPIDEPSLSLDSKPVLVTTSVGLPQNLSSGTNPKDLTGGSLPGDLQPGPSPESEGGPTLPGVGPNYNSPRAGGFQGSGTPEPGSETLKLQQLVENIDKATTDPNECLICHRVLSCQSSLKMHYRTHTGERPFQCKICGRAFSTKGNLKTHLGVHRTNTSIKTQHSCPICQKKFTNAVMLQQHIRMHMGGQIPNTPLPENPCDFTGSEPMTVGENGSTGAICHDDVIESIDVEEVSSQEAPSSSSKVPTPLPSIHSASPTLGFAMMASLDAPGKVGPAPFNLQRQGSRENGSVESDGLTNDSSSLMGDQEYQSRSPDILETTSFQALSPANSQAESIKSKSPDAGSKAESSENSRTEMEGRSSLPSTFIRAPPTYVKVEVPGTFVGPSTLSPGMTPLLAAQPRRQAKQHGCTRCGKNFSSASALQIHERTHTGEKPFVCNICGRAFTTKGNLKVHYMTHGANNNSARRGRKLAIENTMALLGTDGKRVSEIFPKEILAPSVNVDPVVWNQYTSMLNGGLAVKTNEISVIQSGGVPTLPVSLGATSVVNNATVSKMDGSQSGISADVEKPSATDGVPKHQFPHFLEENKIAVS
Technique: universal PBM
Molecule type: double-stranded DNA, one strand shown
Medium: in vitro
Concentration: 600 nM
Notes: 8-mer, flanks averaged, mean of replicates
Direction: higher = stronger binding
Endpoint: E-score
ATCTGGCC: -0.201
CTATGGTC: 0.00251
GCTTTGTA: 0.152
TCTCCCCA: -0.187
AACTACCC: 0.0429
GAGGTGAA: -0.00684
TCCGAGCA: -0.139
CCCTTAAA: 0.119
CGACGTGC: -0.167
AACGTAAT: 0.292
ACGGGGAC: -0.335
ATACACTG: 0.169
ACAAACAA: 0.173
GCGTACAC: -0.0471
CTGTCCTA: -0.0102
ACGAATTA: 0.143
CTCGGTCC: -0.321
AATTCTAA: 0.3
CTACCACA: 0.119
GAATTAAA: 0.224
GATGTGCC: -0.0981
AGGCGAGG: -0.248

Block 4
Target: Ras GTPase-activating protein-binding protein 1, full length (G3BP1, Homo sapiens, UniProt Q13283)
Sequence of UniProt Q13283 (whole entry, looked up): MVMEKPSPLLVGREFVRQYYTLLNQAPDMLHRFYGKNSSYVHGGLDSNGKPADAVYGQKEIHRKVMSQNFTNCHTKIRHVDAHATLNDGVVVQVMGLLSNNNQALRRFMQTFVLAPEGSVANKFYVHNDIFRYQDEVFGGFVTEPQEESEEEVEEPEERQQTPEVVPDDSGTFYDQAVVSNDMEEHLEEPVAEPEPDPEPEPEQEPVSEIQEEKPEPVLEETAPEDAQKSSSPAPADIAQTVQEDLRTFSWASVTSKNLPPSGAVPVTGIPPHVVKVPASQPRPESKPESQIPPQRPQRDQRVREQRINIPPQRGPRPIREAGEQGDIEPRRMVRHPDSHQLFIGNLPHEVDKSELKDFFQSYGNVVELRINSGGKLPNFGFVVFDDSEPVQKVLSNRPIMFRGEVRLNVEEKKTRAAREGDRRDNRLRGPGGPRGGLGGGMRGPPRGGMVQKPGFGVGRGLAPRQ
Technique: RNA Bind-n-Seq
Molecule type: RNA
Medium: in vitro
Concentration: 200 nM
Notes: whole 134-nt RNA, ends assumed
With: 150 mM LiCl
Reference: input library
Direction: higher = stronger binding
Endpoint: log2 enrichment
All molecules: 7-deaza-guanosine replaces G
Constant ends, left off below: GGGAGUUCUACAGUCCGACGAUC … UGGAAUUCUCGGGUGUCAAGG
UCCUGUGCUACACAUCGUAUGUACCGAAUCGGGUUUUUGGGGUUUUUGGGGUUUUUGGGAAAGUAUUAUGUUACGCCGUUCGGAUCUGCA: 0.894
CCUGUGCUACACAUCGUAUGUACCGAAUCGGGGAAAAAGGGGAAAAAAAGGGGAAAGGGGAAAGUAUUAUGUUACGCCGUUCGGAUCUGC: 0.828
AGUCCUGUGCUACACAUCGUAUGUACCGAAUCAAACCCCCCCAAAUUUAAACCCAAAAAAGUAUUAUGUUACGCCGUUCGGAUCUGCACU: 1.45
GUGCUACACAUCGUAUGUACCGAAUCGGGGAAAAAAAGGGGAAAAAAAGGGGUUUUUUUGGGGAAAGUAUUAUGUUACGCCGUUCGGAUC: 0.05
CUGUGCUACACAUCGUAUGUACCGAAUCGGUUUUUUUGGGUUUUUUUGGGUUUUUUUGGGGAAAGUAUUAUGUUACGCCGUUCGGAUCUG: 1.23
UCAAGUCCUGUGCUACACAUCGUAUGUACCGAAUCGGGGCCGGCCGGGGCCGGGAAAGUAUUAUGUUACGCCGUUCGGAUCUGCACUUCC: 0.319
UCAAGUCCUGUGCUACACAUCGUAUGUACCGAAUCGGGUUUUUGGGAGGGAGGGAAAGUAUUAUGUUACGCCGUUCGGAUCUGCACUUCC: -0.892
GUCCUGUGCUACACAUCGUAUGUACCGAAUCGGGAAAAAGGAAAAAGGGAAAAAGGGGAAAGUAUUAUGUUACGCCGUUCGGAUCUGCAC: -0.0598
UGUGCUACACAUCGUAUGUACCGAAUCGGGGUUUUUUUGGGGUUUUUUUGGGUUUUUUUGGGGAAAGUAUUAUGUUACGCCGUUCGGAUC: 1.91
CUCAAGUCCUGUGCUACACAUCGUAUGUACCGAAUCGGUGGAAAAAGGUUUGGAAAGUAUUAUGUUACGCCGUUCGGAUCUGCACUUCCA: -0.106
UAACUUUAGAGGAGGAUCUGAUGGAUAUGGCAGUGGACGUGCAUUUGGGGAUGGCUAUAAUGGGUAUGGAGGAGGACCUGGAGGUGGCAA: -1.01

Some of these lines once more (block 4):
GUCCUGUGCUACACAUCGUAUGUACCGAAUCGGGAAAAAGGAAAAAGGGAAAAAGGGGAAAGUAUUAUGUUACGCCGUUCGGAUCUGCAC: -0.0598
AGUCCUGUGCUACACAUCGUAUGUACCGAAUCAAACCCCCCCAAAUUUAAACCCAAAAAAGUAUUAUGUUACGCCGUUCGGAUCUGCACU: 1.45
UCAAGUCCUGUGCUACACAUCGUAUGUACCGAAUCGGGGCCGGCCGGGGCCGGGAAAGUAUUAUGUUACGCCGUUCGGAUCUGCACUUCC: 0.319
UCCUGUGCUACACAUCGUAUGUACCGAAUCGGGUUUUUGGGGUUUUUGGGGUUUUUGGGAAAGUAUUAUGUUACGCCGUUCGGAUCUGCA: 0.894
CUCAAGUCCUGUGCUACACAUCGUAUGUACCGAAUCGGUGGAAAAAGGUUUGGAAAGUAUUAUGUUACGCCGUUCGGAUCUGCACUUCCA: -0.106
UCAAGUCCUGUGCUACACAUCGUAUGUACCGAAUCGGGUUUUUGGGAGGGAGGGAAAGUAUUAUGUUACGCCGUUCGGAUCUGCACUUCC: -0.892
